Measured values collected from several papers.
Every numbered part comes from another study and shows a few of its results, in no order. Substitutions count along the parent as printed.

Block 1 — target: CCNA1, cyclin fold, Cln2 fusion (human); method: yeast growth competition, sequencing; sample: yeast; setting: weak parent motif; reference: not given; reading: higher = stronger binding
Parent: PKN2 docking peptide (human); VSAVRKLDFSDTM; partner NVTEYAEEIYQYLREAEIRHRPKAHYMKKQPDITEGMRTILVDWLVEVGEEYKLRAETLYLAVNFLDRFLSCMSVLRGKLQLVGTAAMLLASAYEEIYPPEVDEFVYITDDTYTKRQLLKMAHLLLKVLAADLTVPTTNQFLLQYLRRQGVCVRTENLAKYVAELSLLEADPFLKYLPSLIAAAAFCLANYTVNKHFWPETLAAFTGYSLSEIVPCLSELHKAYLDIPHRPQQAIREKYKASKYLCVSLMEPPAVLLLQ
Substitution	normalised enrichment score
D11P	0.73
A3T	0.519
T12P	0.791
D11S	1.03
T12F	1.39
S10K	0.222
S10R	0.492
K6F	0.235
F9K	0.311
D11Y	0.564
T12K	0.828
L7C	0.0744
S10P	0.567
S2V	0.583
A3K	0.328
S10M	0.279
D8M	-0.222
V4H	0.617
D8N	1.06
F9Y	0.485
F9V	0.0771
S10A	0.904
A3I	1.27
S2D	0.351
F9G	0.48

Block 2 — method: protein-binding microarray; form: double-stranded DNA, one strand shown; sample: in vitro; concentration: 2540 nM top; setting: 60-bp whole probe; together with: salmon DNA 0.4 mg/ml; reference: random background probes; reading: higher = stronger binding; constant ends, left off below: GCCTAGCAC … GTCTTGATTCGCTTGACGCTGCTG
Target: Interferon regulatory factor 3, full length, phosphomimetic (IRF3, Homo sapiens, UniProt Q14653, residues 1-427, S386D/S396D/S398D/S402D/T404D/S405D)
Residues (chain): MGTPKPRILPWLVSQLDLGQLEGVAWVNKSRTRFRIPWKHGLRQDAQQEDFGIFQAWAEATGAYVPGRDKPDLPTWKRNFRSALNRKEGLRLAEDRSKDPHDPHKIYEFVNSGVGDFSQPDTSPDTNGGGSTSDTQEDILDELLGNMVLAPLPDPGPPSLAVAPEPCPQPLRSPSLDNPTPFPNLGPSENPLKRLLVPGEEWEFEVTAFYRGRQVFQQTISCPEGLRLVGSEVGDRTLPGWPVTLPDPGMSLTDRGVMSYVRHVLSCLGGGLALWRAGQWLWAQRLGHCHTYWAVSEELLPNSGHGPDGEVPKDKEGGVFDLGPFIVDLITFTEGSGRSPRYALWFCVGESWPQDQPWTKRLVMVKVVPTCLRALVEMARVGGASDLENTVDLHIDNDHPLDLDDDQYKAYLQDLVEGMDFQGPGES
Oligonucleotide	fitted relative affinity [z-score]
GAGGATATCAGTATCGAGACGTGCTAG	0.819
TTAGGTTTCGGGTCTCGGTTAGTGCTA	5.86
TTAGATATCTGTATCGATTAGTGCTAG	1.08
GACGGTTTCGACACTGGGGTCGTGCTA	3.3
GGGGTTTCGGATGGGATGTCGTGCTAG	2.13
GACGGTTCCCTTTTCCAGACGTGCTAG	6.34
GACGGGATCGGTTTCGGGACGTGCTAG	4.68
GACGGTCTCGGTTTCGGGAAGTGCTAG	3.65
TTAGGACTGCTATTGCTTTAGTGCTAG	-0.531
TTAGAACTGAGACTCGATTAGTGCTAG	-0.464
TTAGGGATCGGGACTGGGTTAGTGCTA	-0.319
CAAACACTGGTTTTTACTTTGTGCTAG	1.47
TCATATTAAAATTTAATACTGTGCTAG	0.751
TTAGATATCGGGTATGGATTAGTGCTA	-0.0528
TAGAAATTTTTTTTCTAACTGTGCTAG	0.035
GACGATATGGGGTTTCGAGACGTGCTA	0.532
TCACATTTTGTTTTTCAACTGTGCTAG	2.09
GAGGGTTCCGGTTTCGGGACGTGCTAG	5.75
TTAGGACGGGGTTTCGGTTAGTGCTAG	3.13
CTTTTATTAGTGACTCAGCACGTGCTA	2.97
TTAGGTTTCCTTCTCCTGTAGTGCTAG	10.3
GACAGTATCGGGTATCGGGACGTGCTA	1.96
TCAATGGTCCTGGTTTCAACTGTGCTA	-0.107
TTAGGTCTCGGCTTCGGTTAGTGCTAG	-0.275
CTTGGCAAGATGAGGAAGATGTGCTAG	-0.832

Block 3 — method: protein binding microarray; form: double-stranded DNA, one strand shown; sample: in vitro; concentration: not given; reference: not given; reading: higher = stronger binding
Target: Histone acetyltransferase KAT6A, winged helix 2, GST fusion (KAT6A, Homo sapiens, UniProt Q92794, residues 85-181)
Setting: 8-mer, flanks averaged, mean of 2 arrays, mostly near background
Residues (chain): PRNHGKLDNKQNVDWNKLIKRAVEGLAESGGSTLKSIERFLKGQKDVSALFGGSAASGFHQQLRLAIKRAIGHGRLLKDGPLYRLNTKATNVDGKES
Oligonucleotide	E-score
AAACCAAG	0.0016
GTTCCCAA	0.0826
AAGTTGCC	0.141
CACGAGCA	-0.0109
CAGGCCAC	0.0616
CAAATGGG	-0.0571
ACTCCAGG	-0.0812
AACGAGTG	-0.144
AGTCTAAT	-0.0821
ACTATATC	-0.159
ATATCCCC	-0.0487
CTCTAAGC	0.0761
ATGGGCCG	-0.0762
CCACAGCC	-0.00758
CAATCATC	-0.144
ACCGATTC	-0.136
AAGGACTG	-0.0451
GAGGCACC	-0.077
CATATGTC	-0.139
CCATTCAC	-0.00447
CAGTTATA	-0.091
AACTCGGC	0.0748
ATAGCGGA	-0.0832
CAGGGCAA	-0.00732
CCCTGATC	-0.0117

Block 4 — method: universal PBM; form: double-stranded DNA, one strand shown; sample: in vitro; concentration: not given; reading: higher = stronger binding
Target: Sal-like protein 4, full length isoform B (SALL4, Homo sapiens, UniProt Q9UJQ4-2, residues 1-616)
Setting: 8-mer, flanks averaged, mean of replicates
Target sequence (chain): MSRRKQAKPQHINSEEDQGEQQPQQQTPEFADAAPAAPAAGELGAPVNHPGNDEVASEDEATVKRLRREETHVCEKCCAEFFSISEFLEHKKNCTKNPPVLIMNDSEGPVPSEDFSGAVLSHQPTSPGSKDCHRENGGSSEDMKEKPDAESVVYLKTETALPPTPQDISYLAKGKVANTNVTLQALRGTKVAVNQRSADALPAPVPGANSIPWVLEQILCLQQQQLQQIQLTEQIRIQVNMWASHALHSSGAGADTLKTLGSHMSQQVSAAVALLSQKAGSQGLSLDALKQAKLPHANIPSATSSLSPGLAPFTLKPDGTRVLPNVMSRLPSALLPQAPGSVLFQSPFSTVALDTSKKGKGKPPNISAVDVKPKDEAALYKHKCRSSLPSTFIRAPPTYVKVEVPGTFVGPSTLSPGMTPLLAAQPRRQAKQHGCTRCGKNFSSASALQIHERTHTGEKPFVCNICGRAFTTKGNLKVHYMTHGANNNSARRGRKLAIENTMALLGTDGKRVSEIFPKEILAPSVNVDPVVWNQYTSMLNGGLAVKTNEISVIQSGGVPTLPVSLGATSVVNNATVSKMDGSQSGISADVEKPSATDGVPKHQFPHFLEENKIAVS
Oligonucleotide	E-score
ACTACACA	0.245
GAACAAAA	0.182
GCTGAAAC	-0.0713
CACCTATC	0.0486
CGAACGAG	-0.0879
GACTCCGC	-0.293
ATCGGTAC	-0.00153
CTAAGGGC	-0.191
ACCGTCAG	-0.145
AGGTTGAA	0.101
AACCAGAT	-0.00283
AGAAAGCG	-0.134
AAGTACCT	0.0667
ACATAGAC	0.147
ATCCTAAA	0.028
CTCACCAG	-0.187
AAATCTGC	0.0855
CCTGACGA	-0.0849

Block 5 — method: RNA Bind-n-Seq; form: RNA; sample: in vitro; concentration: 365 nM; reference: no-protein control; reading: higher = stronger binding
Target: RNA binding protein fox-1 homolog 2, RRM domain, GST-SBP tag (RBFOX2, Homo sapiens, UniProt O43251-10, residues 100-194)
Setting: natural RNA segment, single round, ends assumed
Constant ends, left off below: GGGAGUUCUACAGUCCGACGAUC … UGGAAUUCUCGGGUGCCAA
Residues (chain): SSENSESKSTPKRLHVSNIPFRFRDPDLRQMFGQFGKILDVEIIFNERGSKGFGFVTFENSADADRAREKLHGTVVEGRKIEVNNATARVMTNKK
Oligonucleotide	RBNS enrichment (R)
CUUAUAAACUAACGGGGACCGAGGAAUGUAGGGAGUGUUAAAGGAAAGCUAACUUCUAACUUCCUUCCGCUGAGAUGUCUUCUGCUGCCUCAUUUGCAAGAUGUGCAAGC	0.367
AUGAUGGCUAAUACUCAGGCAGAGCCCCGUAUUCUUCCCUGACUUGGUCAAAACAAACUUCCUUUUCCCUUGAUCACCCUGCACGCAGCUGCCCAGCUUCCAGUUUUUAA	3.38
GCUGUGACUUCUUAUCCAGGCCCCCAACUUAUGUCCUUAGGGUCAUCUUGGAGAACCACAAUGGAUUCUUCUGUCUCUAUACUUUCUGGGGUUCUUUCCCCUCCCUCUCA	0.611
GUGCGGAGGGAGCCACCUCACCCUGCAGCCCAGUUUGCAGGUGUGGCCUUGUUUCUCCUUGCCCAGCAGUGCUGCCUUCAGCGGCCGUGACGGGGCCAGCUGGACACACG	0.237
GAAGAGAGAGAUAGGGUAUAGGCUGAUAUUGCCCCUCCUGUUUGGGUCCCAUCUACUGUGGUCCACUGAGCCCAAUUUGAUAUGUAAAUACACCUCAAAUUUGGAAAGUU	0.459
CAUGUGUGGCAUCUUUUUCAUGCCACCAACAAACUUGUUGUGUGUGUGCGUGUGUGUGUGUGUGUGUGUGUGUGUGUGUGUGUUCUGUACCCACUAGGAUUUGUUUAGGU	7.51
GAAAUCUGACACUAAGGUACCCUGAGCAUAGGAGGGGCAUGGGUCGCACCAUUGCACUUUAGAAAUAACACGGAGUGUUCCCAAGGGCCUCAGGUGGACUGCCACCCUGC	1.01
UACCUGCACAUCUGUUUGCAUGGUCAUGUGUACAUUCAAACAUGCACAUAAAGUGAACAAGAAAGUCAGCCAUUAUUUCACGCCAGACUUGAUUCCAUCCUGAGAAUUCA	0.233
AACAGCUUUACUUCAAAAGCAUGUGCCUCUGGUAAAUUAUCCAUCACUUUUGUUUUAAAGUGGUCCCUCCAAGAAUAAUGUGGCAUACACAGUGGGUUUGGUUGUAAGGC	0.939
CACAGCCCUGACACAGGUGUGGCUACUGGAGGGGCCUUCAUACCUGCGGCCCCAAAGCCCCUGGGCUUGGCUGUUUGAGGCAGAGGUGAUGGACUCCGGGGGCCUGACAC	0.641
UUCACCUGUGAUGCUAGCAUUAAUGGCACCACCAUAUUCAUGCCAGUAGGCUCCCUGCAGUCCUUGGGAACUAUCCAAGCACGAAUCAGCAGAAGCUUGUAGGAUGAGUG	0.511
CCAGCUGAGGUUUUUCCUCUGUCUCUCUAGGAAUAGGGUCUGUUUCACAGGCCAUUUCUGUGAACCCUACUCCAUUGUGGUUUCUGCCACUAUCAAAGUUCCAGCUACCU	0.216

For quick reference, copied from above (block 1):
Substitution	normalised enrichment score
D8M	-0.222
K6F	0.235
D11Y	0.564
D11S	1.03
F9V	0.0771
L7C	0.0744
D8N	1.06
S2V	0.583
A3K	0.328
S2D	0.351
D11P	0.73
F9G	0.48
A3T	0.519
S10A	0.904
S10R	0.492
